Measurements of several laboratories.
Lines come from different studies, so protocols differ.

O=C1Nc2cc3[nH]nc(-c4ccncc4)c3cc2CN1Cc1ccccc1
patients with dyspnoea (CTCAE v4.03; advanced solid tumour patients; intravenous, 4.8 mg/kg, schedules 1/2): 25%

CN1CC[C@@H](c2c(O)cc(O)c3c(=O)cc(-c4ccc(C(F)(F)F)cc4Cl)oc23)[C@@H]1CO
patients with adverse event (measured: Sepsis; relapsed B-cell malignancies; oral, 200 mg, grade 3-4, intermittent dosing): 0%

CO[C@H]1C[C@@H]2CC[C@@H](C)[C@@](O)(O2)C(=O)C(=O)N2CCCC[C@H]2C(=O)O[C@H]([C@H](C)C[C@@H]2CC[C@@H](OC(=O)NCCOCCOCCOCCOCCOCCOCCOCCOCCC(=O)N3CCc4cc(Cn5nc(-c6ccc7oc(N)nc7c6)c6c(N)ncnc65)ccc4C3)[C@H](OC)C2)C[C@@H](O)[C@H](C)/C=C(\C)[C@@H](O)[C@@H](OC)C(=O)[C@H](C)C[C@H](C)/C=C/C=C/C=C/1C
patients with AE (measured: treatment-emergent AEs; patients with advanced solid tumours; intravenous, 1.6 mg/3 mg, grade ≥3, weekly): 0%

CC(=O)c1c(C)c2cnc(Nc3ccc(C4CCN(CCS(C)(=O)=O)CC4)cn3)nc2n(C2CCCC2)c1=O
patients with AST increased (HR+/HER2- advanced breast cancer patients; oral, dose not given, grade 3/4,, sample A patients): 1.2%

N[C@@H]1c2ccccc2OC12CCN(c1cnc3c(N4CCCc5ncccc54)n[nH]c3n1)CC2
patients with fatal TEAE (advanced solid tumour patients; oral, 50 mg once daily): 0%

C=CCNc1c(O)cc2c(O)c1C[C@@H](C)C[C@H](OC)[C@H](O)[C@@H](C)/C=C(\C)[C@H](OC(N)=O)[C@@H](OC)/C=C\C=C(/C)C(=O)N2
patients with ALP increase (unresectable or metastatic sarcoma; intravenous, 500 mg/m^2, grade 3-4 lab change): 0%

C[C@@H]1OC(=O)NN=C1c1ccc(-c2ccc(F)cc2)c(C(F)(F)F)c1
patients with muscle spasms (patients, phase I trial; oral, dose not given, all arms, worst grade 1): 40%

Nc1nc2cc(-c3ccc4ncc(C(=O)N5CCOCC5)n4c3)ccc2o1
patients with adverse events (measured: Vomiting, any cause, all grades; patients with advanced solid tumours; dose not given): 59%

CCN(CCO)CCCC(C)Nc1ccnc2cc(Cl)ccc12 (stereo not drawn)
patients with adverse event (measured: Fatigue grade 2; newly diagnosed glioblastoma patients; oral, 400 mg/dose, with radiotherapy and temozolomide): 33%

For quick reference, copied from above:
CC(=O)c1c(C)c2cnc(Nc3ccc(C4CCN(CCS(C)(=O)=O)CC4)cn3)nc2n(C2CCCC2)c1=O
patients with AST increased (HR+/HER2- advanced breast cancer patients; oral, dose not given, grade 3/4,, sample A patients): 1.2%
